Experimental data gathered from unrelated publications.
Compare with care: the assays were run in different laboratories. ± gives the spread as reported.
Chain of UniProt P21729 (whole entry, looked up): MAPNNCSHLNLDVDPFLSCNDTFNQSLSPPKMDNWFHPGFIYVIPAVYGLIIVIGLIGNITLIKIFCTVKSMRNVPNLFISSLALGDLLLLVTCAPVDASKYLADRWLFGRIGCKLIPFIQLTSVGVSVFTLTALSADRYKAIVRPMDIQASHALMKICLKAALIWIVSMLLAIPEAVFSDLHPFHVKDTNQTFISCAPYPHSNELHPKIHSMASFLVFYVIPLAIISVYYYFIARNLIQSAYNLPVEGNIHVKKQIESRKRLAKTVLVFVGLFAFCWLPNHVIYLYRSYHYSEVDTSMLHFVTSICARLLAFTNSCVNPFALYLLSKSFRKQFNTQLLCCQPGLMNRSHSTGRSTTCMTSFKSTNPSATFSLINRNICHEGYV

CCCC[C@H](NC(=O)CNC(=O)CNC(=O)CNC(=O)c1ccc(NN)nc1)C(=O)N[C@H]1CC(=O)NCCCC[C@@H](C(N)=O)NC(=O)[C@H](Cc2c[nH]c3ccccc23)NC(=O)[C@H](CCCNC(=N)N)NC(=O)[C@@H](Cc2ccccc2)NC(=O)[C@H](Cc2c[nH]cn2)NC1=O [technetium-99m labelled] has an uptake of 0.43 ± 0.27 %ID/g (C57 mouse, B16/F1 melanoma, stomach; intravenous, 2 h).
With COc1cc(OC)cc(C2=C3c4ccccc4C(c4ccc(NC(=S)S[C@@H]5O[C@H](CO)[C@@H](O)[C@H](O)[C@H]5O)cc4)=[N+]3[B-](F)(F)n3c2c2ccccc2c3-c2ccc(NC(=S)NCCOCCOCCOCCC(=O)N[C@@H](CC(C)C)C(=O)N[C@@H](C)C(=O)N[C@@H](CCCNC(=N)N)C(=O)N[C@@H](CC(C)C)C(=O)N[C@@H](CC(C)C)C(=O)N[C@H](C(N)=O)[C@@H](C)O)cc2)c1 the absorption maximum was 657 nm (DMSO).
With N=C(N)NCCC[C@@H]1NC(=O)[C@H](CCCCNC(=O)c2ccc(CNC34CNCCNCC(NCc5ccc(C(=O)NCCCC[C@@H]6NC(=O)[C@@H](Cc7ccc(O)cc7)NC(=O)[C@H](CC(=O)O)NC(=O)CNC(=O)[C@H](CCCNC(=N)N)NC6=O)cc5)(CNCCNC3)CNCCNC4)cc2)NC(=O)[C@@H](Cc2ccc(O)cc2)NC(=O)[C@H](CC(=O)O)NC(=O)CNC1=O [copper-64 labelled] the intact compound was greater than 95% (HPLC; nude mouse, U-87 MG xenograft, kidney; 1 h post injection).
With C[C@H](NC(=O)CNC(=O)[C@H](CCC(=O)O)NC(=O)[C@H](CCC(=O)O)NC(=O)[C@H](CC(=O)O)NC(=O)[C@@H]1CCCN1C(=O)[C@H](Cc1ccccc1)NC(=O)[C@H](CS)NC(=O)[C@H](Cc1ccc(O)cc1)NC(=O)CCCNC(=O)CNC(=O)CNC(=O)[C@@H](C)NC(=O)CN)C(=O)N[C@@H](CS)C(=O)N[C@@H](Cc1ccc(O)cc1)C(N)=O [technetium-99m labelled] the radiochemical purity was 92.81 ± 0.32% (radio-HPLC; human serum; 4 h, 37 °C, serum mix 1:10 v/v).
With CCCC[C@H](NC(=O)CNC(=O)CNC(=O)c1ccc(NN)nc1)C(=O)N[C@H]1CC(=O)NCCCC[C@@H](C(N)=O)NC(=O)[C@H](Cc2c[nH]c3ccccc23)NC(=O)[C@H](CCCNC(=N)N)NC(=O)[C@@H](Cc2ccccc2)NC(=O)[C@H](Cc2c[nH]cn2)NC1=O [technetium-99m labelled] the uptake was 0.35 ± 0.05 %ID/g (C57 mouse, B16/F1 melanoma, liver; 2 h, with: L-lysine 12 mg).
For N=C(N)NCCC[C@@H]1NC(=O)[C@H](CCCCNC(=O)CCOCCOCCOCCOCCNC(=O)CN2CCN(CC(=O)O)CCN(CC(=O)O)CCN(CC(=O)O)CC2)NC(=O)[C@@H](Cc2ccccc2)NC(=O)[C@H](CC(=O)O)NC(=O)CNC1=O [indium-111 labelled], “tumour to tissue ratio” read 4.36 ± 0.68 (athymic nude mice, female, U-87 MG glioma xenograft, tumour and lungs; intravenous, 4 h; reference: tumour over lungs).
For CSCC[C@H](NC(=O)[C@H](CC(C)C)NC(=O)[C@H](Cc1c[nH]cn1)NC(=O)CNC(=O)[C@@H](NC(=O)[C@H](C)NC(=O)[C@H](Cc1c[nH]c2ccccc12)NC(=O)[C@H](CCC(N)=O)NC(=O)CCCCCNC(=O)CNC(=O)CNC(=O)CNC(=O)CSC(C)=O)C(C)C)C(N)=O [technetium-99m labelled], the tissue uptake was 0.72 ± 0.31 %ID/g (nude mouse, PC-3 xenograft, spleen; 90 min).
The tissue uptake of CCCNC(=O)[C@H](CC(C)C)NC(=O)[C@H](Cc1c[nH]cn1)NC(=O)CNC(=O)[C@@H](NC(=O)[C@H](C)NC(=O)[C@H](Cc1c[nH]c2ccccc12)NC(=O)[C@H](CCC(N)=O)NC(=O)[C@@H](Cc1ccccc1)NC(=O)CCCCCNC(=O)CN1CCN(CC(=O)O)CCN(CC(=O)O)CCN(CC(=O)O)CC1)C(C)C [indium-111 labelled] is reported as 0.17 ± 0.03 %ID/g (Gastrin-releasing peptide receptor (Mus musculus, UniProt P21729); biodistribution; CF-1 mice, spleen; intravenous, 1 h, unblocked).
COc1cc(C(=O)NCCOCCOCCOCCNC(=O)c2ccc([18F])nc2)ccc1NC(=O)C1NC(CC(C)(C)C)C(C#N)(c2ccc(Cl)cc2F)C1c1cccc(Cl)c1F (stereo not shown) gave a tracer uptake of 0.53 %ID/g (SJSA-1 tumour model; host not given, muscle; 2 h, tumour-bearing).
CN[C@](C)(C[18F])C(=O)O gave a tracer uptake of 42 %ID/g (MDA-MB-468 tumour model; host not given, pancreas; 30 min, tumour-bearing).
For CCCC[C@H](NC(=O)CNC(=O)[C@H](CO)NC(=O)CNC(=O)c1ccc(NN)nc1)C(=O)N[C@H]1CC(=O)NCCCC[C@@H](C(N)=O)NC(=O)[C@H](Cc2c[nH]c3ccccc23)NC(=O)[C@H](CCCNC(=N)N)NC(=O)[C@@H](Cc2ccccc2)NC(=O)[C@H](Cc2c[nH]cn2)NC1=O [technetium-99m labelled], the uptake was 0.07 ± 0.11 %ID/g (C57 mouse, B16/F1 melanoma, brain; intravenous, 2 h).
N=C(N)NCCC[C@@H]1NC(=O)[C@H](CCCCNC(=O)CNC(=O)CNC(=O)CNC(=O)CC[C@H](NC(=O)CCOCCOCCOCCOCCNC(=O)CC[C@H](NC(=O)CN2CCN(CC(=O)O)CCN(CC(=O)O)CCN(CC(=O)O)CC2)C(=O)NCCOCCOCCOCCOCCC(=O)N[C@@H](CCC(=O)NCC(=O)NCC(=O)NCC(=O)NCCCC[C@@H]2NC(=O)[C@@H](Cc3ccccc3)NC(=O)[C@H](CC(=O)O)NC(=O)CNC(=O)[C@H](CCCNC(=N)N)NC2=O)C(=O)NCC(=O)NCC(=O)NCC(=O)NCCCC[C@@H]2NC(=O)[C@@H](Cc3ccccc3)NC(=O)[C@H](CC(=O)O)NC(=O)CNC(=O)[C@H](CCCNC(=N)N)NC2=O)C(=O)NCC(=O)NCC(=O)NCC(=O)NCCCC[C@@H]2NC(=O)[C@@H](Cc3ccccc3)NC(=O)[C@H](CC(=O)O)NC(=O)CNC(=O)[C@H](CCCNC(=N)N)NC2=O)NC(=O)[C@@H](Cc2ccccc2)NC(=O)[C@H](CC(=O)O)NC(=O)CNC1=O [indium-111 labelled] has a tissue uptake of 11.4 ± 2.92 %ID/g (athymic nude mice, female, U-87 MG glioma xenograft, U-87 MG tumour; intravenous, 3 µCi, 0.5 h).
CC/C=C\C/C=C\C/C=C\C/C=C\C/C=C\C/C=C\CCC(=O)Nc1ccn(C2OC(CO)C(O)C2(F)F)c(=O)n1 (stereo not shown) has a CC50 of greater than 100 µM (HOP-92; NCI60 screen).

Some of these lines once more:
CN[C@](C)(C[18F])C(=O)O gave a tracer uptake of 42 %ID/g (MDA-MB-468 tumour model; host not given, pancreas; 30 min, tumour-bearing).
